Experimental data of several laboratories.
Each numbered part is a random draw from the data of one study; scales do not carry over between parts. “And” joins repeats or separate records; there may be more than shown.
UniProt P10721, sequence (whole entry, unmodified, looked up): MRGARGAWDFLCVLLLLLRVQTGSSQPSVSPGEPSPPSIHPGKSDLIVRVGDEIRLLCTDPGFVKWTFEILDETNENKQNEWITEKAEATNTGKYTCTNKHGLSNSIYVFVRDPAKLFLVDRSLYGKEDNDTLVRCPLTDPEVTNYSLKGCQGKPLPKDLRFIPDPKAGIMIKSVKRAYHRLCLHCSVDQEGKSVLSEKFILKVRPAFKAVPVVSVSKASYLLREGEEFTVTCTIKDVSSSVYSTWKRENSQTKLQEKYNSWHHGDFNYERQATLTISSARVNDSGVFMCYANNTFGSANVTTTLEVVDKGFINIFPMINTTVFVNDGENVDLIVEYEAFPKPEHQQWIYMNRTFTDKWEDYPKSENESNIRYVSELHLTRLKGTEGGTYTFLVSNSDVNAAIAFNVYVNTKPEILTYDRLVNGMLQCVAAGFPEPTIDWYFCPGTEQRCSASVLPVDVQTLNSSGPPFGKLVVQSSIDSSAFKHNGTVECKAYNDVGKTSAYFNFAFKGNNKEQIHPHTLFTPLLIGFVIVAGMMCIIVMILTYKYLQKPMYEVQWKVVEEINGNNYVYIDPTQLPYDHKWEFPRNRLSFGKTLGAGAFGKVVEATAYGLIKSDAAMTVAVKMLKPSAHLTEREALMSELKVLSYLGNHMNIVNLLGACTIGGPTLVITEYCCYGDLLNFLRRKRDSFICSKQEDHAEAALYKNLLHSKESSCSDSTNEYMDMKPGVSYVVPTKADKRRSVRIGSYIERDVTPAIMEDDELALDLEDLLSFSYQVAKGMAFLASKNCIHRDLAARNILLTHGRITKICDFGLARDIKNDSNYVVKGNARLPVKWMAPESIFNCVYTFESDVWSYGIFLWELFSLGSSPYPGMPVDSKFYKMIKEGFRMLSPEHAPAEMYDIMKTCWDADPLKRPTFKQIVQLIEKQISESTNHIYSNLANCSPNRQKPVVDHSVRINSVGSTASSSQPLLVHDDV
UniProt P51957, sequence (whole entry, looked up): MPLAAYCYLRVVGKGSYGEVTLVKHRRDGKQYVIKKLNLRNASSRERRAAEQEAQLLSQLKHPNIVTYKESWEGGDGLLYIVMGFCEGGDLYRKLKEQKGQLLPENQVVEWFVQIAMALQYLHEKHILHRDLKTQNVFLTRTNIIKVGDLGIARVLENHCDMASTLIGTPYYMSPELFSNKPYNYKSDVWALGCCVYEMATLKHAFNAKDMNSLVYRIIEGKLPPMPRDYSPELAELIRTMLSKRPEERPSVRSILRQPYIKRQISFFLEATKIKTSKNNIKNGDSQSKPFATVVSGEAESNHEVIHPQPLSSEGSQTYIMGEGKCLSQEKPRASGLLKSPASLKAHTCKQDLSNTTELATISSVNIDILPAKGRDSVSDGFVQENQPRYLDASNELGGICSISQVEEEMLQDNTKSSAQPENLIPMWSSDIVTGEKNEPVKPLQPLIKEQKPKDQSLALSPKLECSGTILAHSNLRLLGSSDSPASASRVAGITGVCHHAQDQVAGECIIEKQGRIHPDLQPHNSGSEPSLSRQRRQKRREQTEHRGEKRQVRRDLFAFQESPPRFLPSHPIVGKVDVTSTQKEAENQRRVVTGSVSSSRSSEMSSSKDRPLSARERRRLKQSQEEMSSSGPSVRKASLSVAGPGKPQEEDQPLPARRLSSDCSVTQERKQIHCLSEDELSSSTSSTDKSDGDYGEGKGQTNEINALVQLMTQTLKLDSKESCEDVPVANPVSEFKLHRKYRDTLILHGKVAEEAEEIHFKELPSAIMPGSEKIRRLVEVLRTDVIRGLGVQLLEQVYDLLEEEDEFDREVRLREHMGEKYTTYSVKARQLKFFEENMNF

Set 1
SMILES: CC(C)n1cnc2c(Nc3cccc(Cl)c3)nc(NCCO)nc21
Read-out: enzyme activity
Mode: inhibitor
Concentration: 0.5 µM
Baseline: control
Measurement: remaining activity
Protein kinase C delta type (PRKCD, Homo sapiens, UniProt Q05655): 89.1%
Ephrin type-A receptor 5 (EPHA5, Homo sapiens, UniProt P54756): 91.7%
Interleukin-1 receptor-associated kinase 4 (IRAK4, Homo sapiens, UniProt Q9NWZ3): 95.2%
Serine/threonine-protein kinase Nek4 (NEK4, Homo sapiens, UniProt P51957): 89.1%
Mitogen-activated protein kinase kinase kinase kinase 2 (MAP4K2, Homo sapiens, UniProt Q12851): 87.6%
Casein kinase II subunit alpha (CSNK2A1, Homo sapiens, UniProt P68400): 83.8%
RAC-gamma serine/threonine-protein kinase (AKT3, Homo sapiens, UniProt Q9Y243): 99.9%
Cyclin-dependent kinase 9, with cyclin T1 (CDK9, Homo sapiens, UniProt P50750): 87.4%
MAP kinase-interacting serine/threonine-protein kinase 2 (MKNK2, Homo sapiens, UniProt Q9HBH9): 94.8%
Casein kinase I isoform alpha (CSNK1A1, Homo sapiens, UniProt P48729): 62.4%
Tyrosine-protein kinase Lyn (LYN, Homo sapiens, UniProt P07948): 80.2%
Tyrosine-protein kinase BTK (BTK, Homo sapiens, UniProt Q06187): 86.3%
Mitogen-activated protein kinase 12 (MAPK12, Homo sapiens, UniProt P53778): 102%
Dual specificity mitogen-activated protein kinase kinase 6 (MAP2K6, Homo sapiens, UniProt P52564): 88.9%
Protein kinase C iota type (PRKCI, Homo sapiens, UniProt P41743): 101%
Serine/threonine-protein kinase PLK2 (PLK2, Homo sapiens, UniProt Q9NYY3): 95.9%
Mitogen-activated protein kinase kinase kinase 10 (MAP3K10, Homo sapiens, UniProt Q02779): 90.3%
Mitogen-activated protein kinase 13 (MAPK13, Homo sapiens, UniProt O15264): 99%
Mast/stem cell growth factor receptor Kit (KIT, Homo sapiens, UniProt P10721): 76.3%
Serine/threonine-protein kinase WNK2 (WNK2, Homo sapiens, UniProt Q9Y3S1): 93.6%
Serine/threonine-protein kinase Chk1 (CHEK1, Homo sapiens, UniProt O14757): 87.1%
cGMP-dependent protein kinase 1 (PRKG1, Homo sapiens, UniProt Q13976): 92.2%
Leucine-rich repeat serine/threonine-protein kinase 2 (LRRK2, Homo sapiens, UniProt Q5S007): 72.8%

Set 2
Target: Calcium/calmodulin-dependent protein kinase type II subunit alpha (CAMK2A, Homo sapiens, UniProt Q9UQM7)
UniProt Q9UQM7, sequence (whole entry, looked up): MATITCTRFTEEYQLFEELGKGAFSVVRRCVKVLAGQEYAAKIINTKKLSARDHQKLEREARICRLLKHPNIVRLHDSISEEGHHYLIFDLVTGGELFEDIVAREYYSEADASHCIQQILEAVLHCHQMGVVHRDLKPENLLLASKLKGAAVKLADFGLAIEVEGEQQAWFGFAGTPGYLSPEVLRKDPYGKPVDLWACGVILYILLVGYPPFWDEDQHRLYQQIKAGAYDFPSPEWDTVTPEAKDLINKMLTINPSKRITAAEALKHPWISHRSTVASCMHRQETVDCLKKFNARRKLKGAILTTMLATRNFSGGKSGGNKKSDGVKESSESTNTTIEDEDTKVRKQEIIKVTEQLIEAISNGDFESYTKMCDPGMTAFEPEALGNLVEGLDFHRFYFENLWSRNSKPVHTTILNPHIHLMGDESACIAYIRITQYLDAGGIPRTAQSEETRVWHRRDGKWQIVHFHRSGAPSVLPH
Read-out: enzyme activity
Mode: inhibitor
Concentration: 10 µM
Measurement: inhibition
O=C(O)Cc1cccc(O)c1: -3%
CN(Cc1cc(Br)cc(Br)c1N)C1CCCCC1: -4%
CCCCCCCCCCCCCCCC[N+](C)(C)Cc1ccccc1: -10%
CCc1oc2ccccc2c1C(=O)c1cc(Br)c(O)c(Br)c1: -12%
CNCCC[C@]12CC[C@H](c3ccccc31)c1ccccc12: -13%
Nc1ccn([C@H]2C[C@H](O)[C@@H](CO)O2)c(=O)n1: -12%
COc1ccc(-c2cc(=O)c3c(O)c(OC)c(OC)c(OC)c3o2)cc1OC: -24%
Cc1ccc(C)c(OCCCC(C)(C)C(=O)O)c1: 11%
C[C@H](CCC(=O)O)[C@H]1CC[C@H]2[C@@H]3CC=C4C[C@@H](O)CC[C@]4(C)[C@H]3CC[C@]12C: 19%
Oc1cc2cc[nH]c2cc1O: 13%
COc1cc2c(c(OC)c1OC)-c1c(cc3c(c1OC)OCO3)C[C@H](C)[C@H](C)C2: -0.02% and 0.03%
COc1ccc(C[C@@H]2c3cc(Oc4cc(C[C@@H]5c6cc(OC)c(OC)cc6CCN5C)ccc4O)c(OC)cc3CCN2C)cc1: -25%
CCn1cc(C(=O)O)c(=O)c2cc(F)c(N3CCNCC3)cc21: -5%
O=C(O)c1cn[nH]c1: -34%
CC1=CCC(O)(C(C)C)CC1 (stereo not shown): 41%
Clc1ccc(C(Cn2ccnc2)OCc2csc3c(Cl)cccc23)c(Cl)c1 (stereo not shown): 0%

Set 3
Target: DNA polymerase theta, ATPase domain (POLQ, Homo sapiens, UniProt O75417)
UniProt O75417, sequence (whole entry, unmodified, looked up): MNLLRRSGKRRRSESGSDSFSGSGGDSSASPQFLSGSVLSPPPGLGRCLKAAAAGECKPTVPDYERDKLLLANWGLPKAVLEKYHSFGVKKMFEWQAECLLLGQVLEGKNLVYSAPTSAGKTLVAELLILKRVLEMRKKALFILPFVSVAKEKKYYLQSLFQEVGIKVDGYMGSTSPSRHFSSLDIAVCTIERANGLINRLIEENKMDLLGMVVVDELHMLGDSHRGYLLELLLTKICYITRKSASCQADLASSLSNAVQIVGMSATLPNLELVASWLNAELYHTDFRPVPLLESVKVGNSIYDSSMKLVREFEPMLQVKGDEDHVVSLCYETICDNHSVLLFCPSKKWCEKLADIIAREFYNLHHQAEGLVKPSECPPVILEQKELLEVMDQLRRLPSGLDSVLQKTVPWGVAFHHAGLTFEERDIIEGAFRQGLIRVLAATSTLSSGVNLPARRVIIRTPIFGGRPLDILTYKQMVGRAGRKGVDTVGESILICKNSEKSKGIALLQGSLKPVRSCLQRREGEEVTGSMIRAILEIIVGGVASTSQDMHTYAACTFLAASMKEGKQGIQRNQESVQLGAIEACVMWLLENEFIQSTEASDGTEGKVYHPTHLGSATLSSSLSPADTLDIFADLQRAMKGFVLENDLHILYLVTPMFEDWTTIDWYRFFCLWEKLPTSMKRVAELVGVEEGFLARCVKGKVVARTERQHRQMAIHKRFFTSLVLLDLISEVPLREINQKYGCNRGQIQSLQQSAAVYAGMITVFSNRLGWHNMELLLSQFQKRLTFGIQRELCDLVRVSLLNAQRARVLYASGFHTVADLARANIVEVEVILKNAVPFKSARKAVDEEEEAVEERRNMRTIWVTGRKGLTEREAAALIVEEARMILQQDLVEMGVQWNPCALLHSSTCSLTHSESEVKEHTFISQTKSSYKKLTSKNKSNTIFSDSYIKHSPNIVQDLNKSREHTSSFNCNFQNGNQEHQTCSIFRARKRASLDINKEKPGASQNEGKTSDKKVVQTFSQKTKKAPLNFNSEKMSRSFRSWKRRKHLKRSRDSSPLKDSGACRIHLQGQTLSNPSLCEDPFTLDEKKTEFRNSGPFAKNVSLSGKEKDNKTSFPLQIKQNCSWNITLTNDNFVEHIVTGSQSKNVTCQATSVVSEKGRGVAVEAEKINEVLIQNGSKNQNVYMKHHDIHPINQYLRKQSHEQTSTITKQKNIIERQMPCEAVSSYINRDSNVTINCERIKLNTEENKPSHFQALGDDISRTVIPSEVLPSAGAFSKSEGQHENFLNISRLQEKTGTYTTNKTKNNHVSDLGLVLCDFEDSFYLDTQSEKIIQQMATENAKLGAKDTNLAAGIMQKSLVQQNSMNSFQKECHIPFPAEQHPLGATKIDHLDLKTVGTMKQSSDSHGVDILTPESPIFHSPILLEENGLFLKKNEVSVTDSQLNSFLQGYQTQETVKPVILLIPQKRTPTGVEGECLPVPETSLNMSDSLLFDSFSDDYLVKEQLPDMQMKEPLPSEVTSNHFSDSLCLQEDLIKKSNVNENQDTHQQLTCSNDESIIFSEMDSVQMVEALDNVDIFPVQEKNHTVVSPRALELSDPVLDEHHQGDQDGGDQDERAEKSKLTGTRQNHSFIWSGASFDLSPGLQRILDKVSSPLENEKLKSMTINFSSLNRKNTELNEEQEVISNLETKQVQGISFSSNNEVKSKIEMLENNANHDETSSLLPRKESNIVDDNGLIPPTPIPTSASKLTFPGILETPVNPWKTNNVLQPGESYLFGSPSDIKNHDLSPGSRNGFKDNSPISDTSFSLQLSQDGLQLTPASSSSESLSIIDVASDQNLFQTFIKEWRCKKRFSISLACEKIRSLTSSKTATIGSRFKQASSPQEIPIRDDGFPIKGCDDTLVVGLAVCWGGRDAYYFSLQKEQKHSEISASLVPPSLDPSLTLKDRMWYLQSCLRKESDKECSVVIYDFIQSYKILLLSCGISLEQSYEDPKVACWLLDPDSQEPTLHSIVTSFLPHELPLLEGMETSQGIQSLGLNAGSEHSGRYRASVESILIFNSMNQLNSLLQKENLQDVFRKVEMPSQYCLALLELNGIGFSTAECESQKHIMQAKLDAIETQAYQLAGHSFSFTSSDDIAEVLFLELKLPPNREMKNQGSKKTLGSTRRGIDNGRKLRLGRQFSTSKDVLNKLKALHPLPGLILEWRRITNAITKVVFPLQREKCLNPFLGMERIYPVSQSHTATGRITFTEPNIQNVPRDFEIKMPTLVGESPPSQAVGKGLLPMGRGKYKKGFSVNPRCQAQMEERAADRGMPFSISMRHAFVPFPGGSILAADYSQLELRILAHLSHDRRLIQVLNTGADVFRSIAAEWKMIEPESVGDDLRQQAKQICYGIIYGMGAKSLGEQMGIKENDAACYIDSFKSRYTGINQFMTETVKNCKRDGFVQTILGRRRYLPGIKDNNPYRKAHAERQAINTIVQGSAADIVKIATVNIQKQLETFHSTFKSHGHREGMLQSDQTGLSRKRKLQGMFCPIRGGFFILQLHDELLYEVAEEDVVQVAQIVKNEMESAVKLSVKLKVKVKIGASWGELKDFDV
Read-out: enzyme activity
Mode: inhibitor
Concentration: 77 µM
Baseline: untreated
Measurement: remaining activity
CC(C)CN(C[C@@H](O)[C@H](Cc1ccccc1)NC(=O)O[C@H]1CCOC1)S(=O)(=O)c1ccc(N)cc1: 101%
Cc1cn([C@@H]2C[C@@H](O)[C@H](CO)O2)c(=O)[nH]c1=O: 101%
COc1cc(CNC(=O)CCCC/C=C/C(C)C)ccc1O: 96.1%
CN1CCN(C2=Nc3ccccc3Oc3ccc(Cl)cc32)CC1: 95.3% and 90.1%
Cc1cnc(Nc2ccc(N3CCN(C)CC3)cc2)nc1Nc1cccc(S(=O)(=O)NC(C)(C)C)c1: 98.5%
CCOc1nc2cccc(C(=O)OCc3oc(=O)oc3C)c2n1Cc1ccc(-c2ccccc2-c2noc(=O)[nH]2)cc1: 59.1%
CN1CCN(C(c2ccccc2)c2ccc(Cl)cc2)CC1 (stereo not shown): 100%
Cn1c(=O)cc(N2CCC[C@@H](N)C2)n(Cc2cc(F)ccc2C#N)c1=O: 102%
O=C1C(O)=C([C@H]2CC[C@H](c3ccc(Cl)cc3)CC2)C(=O)c2ccccc21: 87.7% and 94.8%
CCCSc1nc(N[C@@H]2C[C@H]2c2ccc(F)c(F)c2)c2nnn([C@@H]3C[C@H](OCCO)[C@@H](O)[C@H]3O)c2n1: 101%
CCCCNc1ccc(C(=O)OCCOCCOCCOCCOCCOCCOCCOCCOCCOC)cc1: 99.5%
CN1C(=O)OC(C)(C)C1=O: 98.9%

Set 4
Structure (SMILES): CNCc1ccccc1-c1csc([C@H](C)Nc2nc(C)nc3cc(OC)c(OC)cc23)c1
Read-out: cell-free assay
Method: competition with immobilised ligand
Concentration: 1 µM
Measurement: remaining binding
Serine/threonine-protein kinase PRP4 homolog (PRPF4B, Homo sapiens, UniProt Q13523): 100%
G protein-coupled receptor kinase 3 (GRK3, Homo sapiens, UniProt P35626): 91%
Serine/threonine-protein kinase pim-3 (PIM3, Homo sapiens, UniProt Q86V86): 100%
Mitogen-activated protein kinase 8 (MAPK8, Homo sapiens, UniProt P45983): 81%
Receptor-type tyrosine-protein kinase FLT3 (FLT3, Homo sapiens, UniProt P36888, R834Q): 82%
Serine/threonine-protein kinase Nek4 (NEK4, Homo sapiens, UniProt P51957): 83%
Serine/threonine-protein kinase BRSK1 (BRSK1, Homo sapiens, UniProt Q8TDC3): 89%
Interferon-induced, double-stranded RNA-activated protein kinase (EIF2AK2, Homo sapiens, UniProt P19525): 100%
Serine/threonine-protein kinase 35 (STK35, Homo sapiens, UniProt Q8TDR2): 100%
MAP kinase-activated protein kinase 5 (MAPKAPK5, Homo sapiens, UniProt Q8IW41): 100%
Tyrosine-protein kinase ABL1, phosphorylated (ABL1, Homo sapiens, UniProt P00519, M351T): 85%
LIM domain kinase 2 (LIMK2, Homo sapiens, UniProt P53671): 100%
Proto-oncogene tyrosine-protein kinase receptor Ret (RET, Homo sapiens, UniProt P07949): 100%
Serine/threonine-protein kinase PAK 2 (PAK2, Homo sapiens, UniProt Q13177): 97%
Aurora kinase A (AURKA, Homo sapiens, UniProt O14965): 73%
Mast/stem cell growth factor receptor Kit (KIT, Homo sapiens, UniProt P10721, A829P): 100%
cAMP-dependent protein kinase catalytic subunit PRKX (PRKX, Homo sapiens, UniProt P51817): 76%
MAP/microtubule affinity-regulating kinase 4 (MARK4, Homo sapiens, UniProt Q96L34): 100%
Serine/threonine-protein kinase SBK1 (SBK1, Homo sapiens, UniProt Q52WX2): 100%
Mast/stem cell growth factor receptor Kit (KIT, Homo sapiens, UniProt P10721): 100%
Cyclin-dependent kinase 2 (CDK2, Homo sapiens, UniProt P24941): 91%
Transient receptor potential cation channel subfamily M member 6 (TRPM6, Homo sapiens, UniProt Q9BX84): 100%
Mitogen-activated protein kinase kinase kinase 13 (MAP3K13, Homo sapiens, UniProt O43283): 91%
Receptor-type tyrosine-protein kinase FLT3 (FLT3, Homo sapiens, UniProt P36888, N841I): 100%
Glycogen synthase kinase-3 beta (GSK3B, Homo sapiens, UniProt P49841): 100%

For quick reference, copied from above (set 3):
CC(C)CN(C[C@@H](O)[C@H](Cc1ccccc1)NC(=O)O[C@H]1CCOC1)S(=O)(=O)c1ccc(N)cc1: 101%
Cc1cn([C@@H]2C[C@@H](O)[C@H](CO)O2)c(=O)[nH]c1=O: 101%
COc1cc(CNC(=O)CCCC/C=C/C(C)C)ccc1O: 96.1%
CN1CCN(C2=Nc3ccccc3Oc3ccc(Cl)cc32)CC1: 95.3% and 90.1%
Cc1cnc(Nc2ccc(N3CCN(C)CC3)cc2)nc1Nc1cccc(S(=O)(=O)NC(C)(C)C)c1: 98.5%
CCOc1nc2cccc(C(=O)OCc3oc(=O)oc3C)c2n1Cc1ccc(-c2ccccc2-c2noc(=O)[nH]2)cc1: 59.1%
CN1CCN(C(c2ccccc2)c2ccc(Cl)cc2)CC1 (stereo not shown): 100%
Cn1c(=O)cc(N2CCC[C@@H](N)C2)n(Cc2cc(F)ccc2C#N)c1=O: 102%
O=C1C(O)=C([C@H]2CC[C@H](c3ccc(Cl)cc3)CC2)C(=O)c2ccccc21: 87.7% and 94.8%
CCCSc1nc(N[C@@H]2C[C@H]2c2ccc(F)c(F)c2)c2nnn([C@@H]3C[C@H](OCCO)[C@@H](O)[C@H]3O)c2n1: 101%
CCCCNc1ccc(C(=O)OCCOCCOCCOCCOCCOCCOCCOCCOCCOC)cc1: 99.5%
CN1C(=O)OC(C)(C)C1=O: 98.9%
